{"data": "Assay results collected from several papers", "note": "A part holds a random share of what one study measured."}
{"data": "Block 1", "target": "Replicase polyprotein 1ab, main protease (rep, Severe acute respiratory syndrome coronavirus 2, UniProt P0DTD1)", "effect on": "enzyme activity", "action": "inhibitor", "concentration": "20 µM"}
{"SMILES": "CCCCCCCCCCCCCCCCCC[S+](CCC)c1ccccc1C(=O)OCC (stereo not shown)", "inhibition [%]": 89.9}
{"SMILES": "O=C(O)c1cc(N2N=C(C(F)(F)F)/C(=C/c3ccc(-c4ccccc4)o3)C2=O)ccc1Cl", "inhibition [%]": 35.4}
{"SMILES": "Cc1ccc(S(=O)(=O)c2ccc([N+](=O)[O-])o2)cc1", "inhibition [%]": 5.82}
{"SMILES": "O=c1[nH]nc(Sc2ncc([N+](=O)[O-])s2)n1-c1ccc2c(c1)OCCO2", "inhibition [%]": 21.2}
{"data": "Block 2", "cell line": "HEK-293T/ACE2", "effect on": "pseudovirus infection", "organism": "VSV pseudotyped with SARS-CoV-2 spike", "concentration": "10 µM", "time": "16 h", "reference": "vehicle-treated"}
{"SMILES": "CC(N)C12CC3CC(CC(C3)C1)C2 (stereo not shown)", "GFP-positive cells [%]": 56.3}
{"SMILES": "CC1(C)O[C@@H]2C[C@H]3[C@@H]4C[C@H](F)C5=CC(=O)C=C[C@]5(C)[C@H]4[C@@H](O)C[C@]3(C)[C@]2(C(=O)CO)O1", "GFP-positive cells [%]": 73}
{"SMILES": "Cc1ccccc1N1C(=O)c2cc(S(N)(=O)=O)c(Cl)cc2NC1C (stereo not shown)", "GFP-positive cells [%]": 61}
{"data": "Block 3", "target": "Ras GTPase-activating protein-binding protein 1, RRM domain (G3BP1, Homo sapiens, UniProt Q13283)", "method": "RNA Bind-n-Seq", "form": "RNA", "matrix": "in vitro", "concentration": "1 µM", "notes": "whole 134-nt RNA, ends assumed", "with": "150 mM KCl", "reference": "input library", "direction": "higher = stronger binding", "all sequences stand within": "GGGAGUUCUACAGUCCGACGAUC … UGGAAUUCUCGGGUGUCAAGG", "UniProt Q13283, sequence (whole entry, looked up)": "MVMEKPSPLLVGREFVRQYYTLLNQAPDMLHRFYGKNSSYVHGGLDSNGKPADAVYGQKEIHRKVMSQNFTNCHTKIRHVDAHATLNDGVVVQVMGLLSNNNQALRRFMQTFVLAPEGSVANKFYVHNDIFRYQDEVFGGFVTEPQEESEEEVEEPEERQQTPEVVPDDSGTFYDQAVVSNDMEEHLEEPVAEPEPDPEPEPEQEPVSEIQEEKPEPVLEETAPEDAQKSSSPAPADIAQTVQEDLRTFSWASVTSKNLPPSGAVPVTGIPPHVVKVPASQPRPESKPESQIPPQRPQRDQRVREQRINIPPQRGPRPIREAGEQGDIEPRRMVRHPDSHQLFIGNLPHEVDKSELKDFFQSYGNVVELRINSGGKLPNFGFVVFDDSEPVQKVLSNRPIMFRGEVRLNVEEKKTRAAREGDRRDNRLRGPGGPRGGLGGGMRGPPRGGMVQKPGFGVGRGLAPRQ"}
{"Strand": "AAGUCCUGUGCUACACAUCGUAUGUACCGAAUCGGGUUUUGGGUUUUGGGUUUUGGAAAGUAUUAUGUUACGCCGUUCGGAUCUGCACUU", "log2 enrichment": -0.237}
{"Strand": "UCCUGUGCUACACAUCGUAUGUACCGAAUCAAACCCCCCCAAAUUUUUUUAAACCCAAAAAAGUAUUAUGUUACGCCGUUCGGAUCUGCA", "log2 enrichment": -0.723}
{"Strand": "AGUCCUGUGCUACACAUCGUAUGUACCGAAUCAAAUUUAAACCCCCAAACCCCCAAAAAAGUAUUAUGUUACGCCGUUCGGAUCUGCACU", "log2 enrichment": -0.291}
{"Strand": "CCUCAAGUCCUGUGCUACACAUCGUAUGUACCGAAUCGGCGGGGCGGGCGGGAAAGUAUUAUGUUACGCCGUUCGGAUCUGCACUUCCAG", "log2 enrichment": 0.182}
{"Strand": "CUCAAGUCCUGUGCUACACAUCGUAUGUACCGAAUCGGGAGGGAAAGGGUGGGAAAGUAUUAUGUUACGCCGUUCGGAUCUGCACUUCCA", "log2 enrichment": 0.701}
{"Strand": "UGGGAGGUGGAUUUUGUUUAUUUUUUUAGCUCAUUUCCAGGGGUGGGAAUUUUUUUUUAAUAUGUGUCAUGAAUAACGUUGUUUUUGAAA", "log2 enrichment": 0.761}
{"Strand": "CUCAAGUCCUGUGCUACACAUCGUAUGUACCGAAUCGGGGAAGGAAGGAAGGGAAAGUAUUAUGUUACGCCGUUCGGAUCUGCACUUCCA", "log2 enrichment": -0.229}
{"Strand": "GUCCUGUGCUACACAUCGUAUGUACCGAAUCGGGGAAAAAGGGAAAAAGGGAAAAAGGAAAGUAUUAUGUUACGCCGUUCGGAUCUGCAC", "log2 enrichment": -0.0453}
{"data": "Block 4", "target": "Replicase polyprotein 1ab, polymerase (rep, Severe acute respiratory syndrome coronavirus 2, UniProt P0DTD1)", "effect on": "enzyme activity", "action": "inhibitor", "concentration": "20 µM"}
{"Compound": "CC1(C)S[C@@H]2[C@H](N3C(=O)[C@@H](c4ccccc4)NC3(C)C)C(=O)N2[C@H]1C(=O)O", "inhibition": "15.1%"}
{"Compound": "CN(Cc1ccc(C(C)(C)C)cc1)Cc1cccc2ccccc12", "inhibition": "-2.08%"}
{"Compound": "CCC(CC)O[C@@H]1C=C(C(=O)O)C[C@H](N)[C@H]1NC(C)=O", "inhibition": "-3.46%"}
{"Compound": "O=C1Cc2c([nH]c3ccc(Br)cc23)-c2ccccc2N1", "inhibition": "2.53%"}
{"Compound": "CCOC(=O)c1ccc(C#Cc2ccc3c(c2)C(C)(C)CCS3)nc1", "inhibition": "-8.27%"}
{"Compound": "CCN(C)C(=O)Oc1cccc([C@H](C)N(C)C)c1", "inhibition": "-5.27%"}
{"Compound": "O=C(O)C(O)=Cc1c[nH]c2ccccc12", "inhibition": "-0.16%"}
{"Compound": "OC[C@H]1O[C@@H](n2cnc3c(NC4CCCC4)nc(Cl)nc32)[C@H](O)[C@@H]1O", "inhibition": "-2.3%"}
{"Compound": "N=C(N)NC(=O)c1cnn(-c2cccc3ncccc23)c1C1CC1", "inhibition": "2.3%"}
{"Compound": "C/C(=N\\NC(=O)[C@H]1C(=O)NC[C@@H]1c1ccccc1)c1cccc(Br)c1", "inhibition": "-12.8%"}
{"Compound": "CCOC(=O)c1ccc(N2NC(=O)/C(=C/c3ccc([N+](=O)[O-])o3)C2=O)cc1", "inhibition": "98%"}
{"Compound": "CC(C)(C)NCC(O)c1ccc(O)c(CO)c1 (stereo not shown)", "inhibition": "23.8%"}
{"Compound": "O=C(O)CCCCC(CCSCc1ccccc1)SCc1ccccc1 (stereo not shown)", "inhibition": "4%"}
{"Compound": "COC(=O)C(N)CS (stereo not shown)", "inhibition": "5.08%"}
{"Compound": "COc1cc2c(cc1OC)C(c1ccc(N)cc1)=NNC(=O)C2", "inhibition": "0.41%"}
{"Compound": "CC(=O)N[C@H]1[C@@H](O)[C@H](O)[C@@H](CO)O[C@@H]1O", "inhibition": "1.64%"}
{"Compound": "O=S(=O)(O)Oc1ccc(C(c2ccc(OS(=O)(=O)O)cc2)c2ccccn2)cc1", "inhibition": "-2.26%"}
{"Compound": "CCCn1c(=O)[nH]c2nc(-c3ccc(S(=O)(=O)N4CCN(c5ccc(Cl)cc5)CC4)cc3)[nH]c2c1=O", "inhibition": "-3.84%"}
{"Compound": "O=S(=O)(O)c1cc(I)c(O)c2ncccc12", "inhibition": "-0.54%"}
{"Compound": "Cc1cc([N+](=O)[O-])ccc1NS(=O)(=O)c1cc(Cl)ccc1Cl", "inhibition": "-3.46%"}
{"Compound": "C[C@]12CC[C@H](O)CC1=CC[C@@H]1[C@@H]2CC[C@]2(C)C(n3cnc4ccccc43)=CC[C@@H]12", "inhibition": "-2.97%"}
{"Compound": "CCCCCCCCCCCCCCCC(=O)OC[C@H](O)[C@H]1OC(=O)C(O)=C1O", "inhibition": "-0.26%"}
{"Compound": "Nc1nc2c(ccc3ccccc32)s1", "inhibition": "-17.6%"}
{"Compound": "CC1(C)OC[C@H](NC(=O)Nc2ccc(Br)cc2Br)[C@H](c2ccccc2)O1", "inhibition": "-17.7%"}
{"Compound": "Cc1ccc(-n2sc(=O)n(Cc3ccc(F)cc3)c2=O)cc1", "inhibition": "-1.91%"}
{"data": "Block 5", "target": "RING finger protein unkempt homolog, zinc fingers 1-6, GST-SBP tag (UNK, Homo sapiens, UniProt Q9C0B0, residues 30-357)", "method": "RNA Bind-n-Seq", "form": "RNA", "matrix": "in vitro", "concentration": "not given", "notes": "RNA with constant flanks, human-mouse chimeric sites, ends assumed", "reference": "input RNA pool", "direction": "higher = stronger binding", "all sequences stand within": "GGGAGUUCUACAGUCCGACGAUC … CAACAGAGGAUUGAGCAUCA", "UniProt Q9C0B0, sequence (30-357, looked up)": "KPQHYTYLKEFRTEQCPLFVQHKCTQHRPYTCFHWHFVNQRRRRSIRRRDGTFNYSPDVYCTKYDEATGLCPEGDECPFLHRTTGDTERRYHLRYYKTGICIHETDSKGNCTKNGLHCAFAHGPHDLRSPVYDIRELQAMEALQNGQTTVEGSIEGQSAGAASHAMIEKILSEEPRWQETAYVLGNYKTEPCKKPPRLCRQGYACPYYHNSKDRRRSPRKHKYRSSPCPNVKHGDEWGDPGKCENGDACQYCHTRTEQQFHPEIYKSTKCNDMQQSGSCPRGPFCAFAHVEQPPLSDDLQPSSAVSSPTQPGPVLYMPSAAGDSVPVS"}
{"Strand": "GAUAAGAAAAGCUUGUUGGAGACCCGCUUGCAUGUCACUGGUAGAGACCUGAGGUGUAAAAUAGCUGAAACUUUCGGACUUCAAGAAAAUUACAUCAAGAUCGUAAUAAAUAAGAAACAG", "bound/input enrichment [ratio]": 0.338}
{"Strand": "CAACAGAGUCUAGGAUGGGUUCAUUACAUGAUUCAUGAGCCAGAACCGCAUAUUCUUCUCUUUAGACGACCUCUUCCAAAAGAUCAACAAAAAUGAAGUUUAUCUGGGAUCAUCUAAUCU", "bound/input enrichment [ratio]": 0.158}
{"Strand": "CUCAGAGAUGUGGCAUAUCAGUAUGUGAAAAAGGGGGCUCGUAUAUUUGUGGAAGGGAAAAUAGACUAUGGCGAGUACAUGGAUAAAAAUAAUGUGAGGCGGCAAGCAACAACAAUCAUA", "bound/input enrichment [ratio]": 0.64}
{"Strand": "AUGGAGAAGGAUUCUCUGCCCCGCUUUGUGCGCUCUGAAUUUUAUAAGGAGCUAAUCAAGUAGUAAUCUGGUCAGGCUUCCAAAAGUUGCCCUGUGAGUUGAGUUACAUCCUUUGUAGCA", "bound/input enrichment [ratio]": 0.242}
{"Strand": "AAUUUCCUGUCAUACUUUUUAGACAUUGCCAUAGGUAUUACAGAGCAUUGGGCCUCUUUCUAGGUUUGUGUUAUUUCUCAGCUAUGGAUAUGAUCAAAUGAGAACACUGCUUAACUAAUG", "bound/input enrichment [ratio]": 1.42}
{"Strand": "CGCUGGCCCAAGCUGAUGGACUCUGAUGGCCUCCAUCUCUCAGGCACGUGUGCCUUCUCUUAGUCCCUGUUUUCGGGAUGUUAUGAAUCUCAGUACUGUUUGACAGAAGCACCAGCUUUG", "bound/input enrichment [ratio]": 0.133}
{"Strand": "UACUACUAUGAUGGUGAUAUUGGCAAUUAUUAUUAUGGCCAGGGUCAUCCCAUGAAGCCUCAUAGAAUCCGCAUGACUCAUAACUUGCUGCUAAAUUAUGGCUUAUACCGAAAAAUGGAA", "bound/input enrichment [ratio]": 0.17}
{"Strand": "GGCUGCUGGUGACUGUCCUGGAGUGGCUGGAGUUCCCCCGGAACCUGGGCCAGACUAAUUUUAGAAAAUGCCAAGUAGGAAGUUUGUUGAGGGUGAAGUGGUCAGAGGUCGAUGGCCUGG", "bound/input enrichment [ratio]": 4.43}
{"data": "Block 6", "target": "Cyclic AMP-dependent transcription factor ATF-1, full length (ATF1, Homo sapiens, UniProt P18846, residues 1-271)", "method": "protein-binding microarray", "form": "hairpin DNA", "matrix": "in vitro", "concentration": "not given", "notes": "whole hairpin DNA, median over replicate spots", "reference": "not given", "direction": "higher = stronger binding", "Target sequence (chain)": "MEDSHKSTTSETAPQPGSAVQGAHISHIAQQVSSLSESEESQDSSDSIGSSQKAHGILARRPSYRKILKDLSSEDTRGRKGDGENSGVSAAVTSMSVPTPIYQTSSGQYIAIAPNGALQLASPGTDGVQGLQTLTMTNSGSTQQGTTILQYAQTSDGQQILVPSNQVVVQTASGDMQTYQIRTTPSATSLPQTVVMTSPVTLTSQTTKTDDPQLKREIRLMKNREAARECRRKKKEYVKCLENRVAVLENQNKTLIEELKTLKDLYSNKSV"}
{"Strand": "GAGGCCGGCGGACGTCAGCCTCCTGGCTGACGTCCGCCGGCCTCACACTC (5mC at 35)", "median fluorescence": "4850 a.u."}
{"Strand": "GAGGCCGGCTGACGTGAGCCTCCTGGCTCACGTCAGCCGGCCTCACACTC", "median fluorescence": "5360 a.u."}
{"Strand": "GAGGCCGACGACGTCGTGCCTCCTGGCACGACGTCGTCGGCCTCACACTC (5mC at 15 29)", "median fluorescence": "4160 a.u."}
{"Strand": "GAGGCCGGCAGACGTCAGCCTCCTGGCTGACGTCTGCCGGCCTCACACTC", "median fluorescence": "5030 a.u."}
{"note": "Excerpt of the above (block 4):"}
{"Compound": "Cc1ccc(-n2sc(=O)n(Cc3ccc(F)cc3)c2=O)cc1", "inhibition": "-1.91%"}
{"Compound": "O=C(O)CCCCC(CCSCc1ccccc1)SCc1ccccc1 (stereo not shown)", "inhibition": "4%"}
{"Compound": "COc1cc2c(cc1OC)C(c1ccc(N)cc1)=NNC(=O)C2", "inhibition": "0.41%"}
{"Compound": "CCN(C)C(=O)Oc1cccc([C@H](C)N(C)C)c1", "inhibition": "-5.27%"}
{"Compound": "Nc1nc2c(ccc3ccccc32)s1", "inhibition": "-17.6%"}
{"Compound": "N=C(N)NC(=O)c1cnn(-c2cccc3ncccc23)c1C1CC1", "inhibition": "2.3%"}
{"Compound": "C[C@]12CC[C@H](O)CC1=CC[C@@H]1[C@@H]2CC[C@]2(C)C(n3cnc4ccccc43)=CC[C@@H]12", "inhibition": "-2.97%"}
{"Compound": "CC1(C)S[C@@H]2[C@H](N3C(=O)[C@@H](c4ccccc4)NC3(C)C)C(=O)N2[C@H]1C(=O)O", "inhibition": "15.1%"}
{"Compound": "CCC(CC)O[C@@H]1C=C(C(=O)O)C[C@H](N)[C@H]1NC(C)=O", "inhibition": "-3.46%"}
